Published values of several laboratories.
Every numbered part comes from another study and shows a few of its results, in no order.
Chain of UniProt P53667 (whole entry, looked up): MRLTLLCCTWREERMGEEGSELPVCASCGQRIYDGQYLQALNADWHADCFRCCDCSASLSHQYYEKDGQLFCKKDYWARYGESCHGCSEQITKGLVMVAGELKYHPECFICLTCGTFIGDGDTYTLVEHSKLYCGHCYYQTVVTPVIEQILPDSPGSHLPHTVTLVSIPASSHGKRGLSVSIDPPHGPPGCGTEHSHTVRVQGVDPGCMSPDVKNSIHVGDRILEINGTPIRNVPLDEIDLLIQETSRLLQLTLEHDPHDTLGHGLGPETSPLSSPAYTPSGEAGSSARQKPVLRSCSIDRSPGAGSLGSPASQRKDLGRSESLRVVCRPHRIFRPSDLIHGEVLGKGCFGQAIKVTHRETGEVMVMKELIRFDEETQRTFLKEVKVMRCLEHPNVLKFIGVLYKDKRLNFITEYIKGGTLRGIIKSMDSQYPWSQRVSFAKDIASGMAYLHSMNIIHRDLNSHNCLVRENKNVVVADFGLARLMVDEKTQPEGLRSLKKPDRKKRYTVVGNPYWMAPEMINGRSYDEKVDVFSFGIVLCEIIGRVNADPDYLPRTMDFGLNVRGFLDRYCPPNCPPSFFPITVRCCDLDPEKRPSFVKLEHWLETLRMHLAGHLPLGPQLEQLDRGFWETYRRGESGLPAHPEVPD
Chain of UniProt Q14680 (whole entry, looked up): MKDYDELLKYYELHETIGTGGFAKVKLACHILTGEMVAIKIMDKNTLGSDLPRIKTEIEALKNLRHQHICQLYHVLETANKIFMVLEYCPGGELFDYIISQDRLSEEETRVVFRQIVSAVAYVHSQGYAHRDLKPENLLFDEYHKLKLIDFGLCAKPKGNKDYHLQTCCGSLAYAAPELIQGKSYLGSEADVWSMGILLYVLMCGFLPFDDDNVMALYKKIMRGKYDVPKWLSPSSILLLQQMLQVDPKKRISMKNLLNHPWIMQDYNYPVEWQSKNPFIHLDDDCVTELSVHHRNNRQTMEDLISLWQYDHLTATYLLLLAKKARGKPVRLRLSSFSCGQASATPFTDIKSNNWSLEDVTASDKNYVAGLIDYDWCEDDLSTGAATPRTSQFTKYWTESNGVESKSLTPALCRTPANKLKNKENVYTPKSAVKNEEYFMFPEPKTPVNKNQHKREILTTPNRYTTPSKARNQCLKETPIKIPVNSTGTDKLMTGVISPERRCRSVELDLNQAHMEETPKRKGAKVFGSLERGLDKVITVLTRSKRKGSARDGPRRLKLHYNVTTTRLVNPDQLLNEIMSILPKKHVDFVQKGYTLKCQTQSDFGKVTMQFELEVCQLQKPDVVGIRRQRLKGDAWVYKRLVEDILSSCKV
Chain of UniProt P07949 (whole entry, unmodified, looked up): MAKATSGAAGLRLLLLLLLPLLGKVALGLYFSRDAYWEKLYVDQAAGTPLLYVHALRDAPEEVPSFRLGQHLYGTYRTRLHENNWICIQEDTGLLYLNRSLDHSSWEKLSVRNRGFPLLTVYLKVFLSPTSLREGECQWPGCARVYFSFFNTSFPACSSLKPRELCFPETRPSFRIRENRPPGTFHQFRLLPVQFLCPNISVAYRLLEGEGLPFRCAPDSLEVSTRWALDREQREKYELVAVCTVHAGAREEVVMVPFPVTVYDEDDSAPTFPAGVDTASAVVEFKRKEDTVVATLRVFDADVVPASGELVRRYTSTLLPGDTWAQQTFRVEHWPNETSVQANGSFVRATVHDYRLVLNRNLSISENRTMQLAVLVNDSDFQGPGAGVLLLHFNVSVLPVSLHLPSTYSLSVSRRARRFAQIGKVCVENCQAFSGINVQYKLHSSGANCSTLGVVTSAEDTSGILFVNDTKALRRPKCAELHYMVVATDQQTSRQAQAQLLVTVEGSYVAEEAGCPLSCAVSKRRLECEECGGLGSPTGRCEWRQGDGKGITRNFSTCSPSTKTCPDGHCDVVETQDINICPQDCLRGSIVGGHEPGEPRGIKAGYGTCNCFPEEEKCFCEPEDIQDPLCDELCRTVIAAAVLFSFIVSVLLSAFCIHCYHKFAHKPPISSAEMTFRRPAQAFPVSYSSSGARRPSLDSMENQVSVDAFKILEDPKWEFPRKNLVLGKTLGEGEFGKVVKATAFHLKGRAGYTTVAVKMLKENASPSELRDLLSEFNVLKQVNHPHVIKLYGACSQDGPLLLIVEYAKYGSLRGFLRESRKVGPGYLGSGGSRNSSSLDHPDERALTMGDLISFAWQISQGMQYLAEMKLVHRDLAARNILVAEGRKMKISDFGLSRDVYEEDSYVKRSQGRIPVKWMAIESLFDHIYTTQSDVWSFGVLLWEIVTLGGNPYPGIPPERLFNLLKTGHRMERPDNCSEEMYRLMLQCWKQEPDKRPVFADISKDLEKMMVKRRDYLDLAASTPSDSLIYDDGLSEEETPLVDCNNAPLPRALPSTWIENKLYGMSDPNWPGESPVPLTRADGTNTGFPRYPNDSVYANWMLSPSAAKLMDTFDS
Chain of UniProt Q8NI60 (whole entry, looked up): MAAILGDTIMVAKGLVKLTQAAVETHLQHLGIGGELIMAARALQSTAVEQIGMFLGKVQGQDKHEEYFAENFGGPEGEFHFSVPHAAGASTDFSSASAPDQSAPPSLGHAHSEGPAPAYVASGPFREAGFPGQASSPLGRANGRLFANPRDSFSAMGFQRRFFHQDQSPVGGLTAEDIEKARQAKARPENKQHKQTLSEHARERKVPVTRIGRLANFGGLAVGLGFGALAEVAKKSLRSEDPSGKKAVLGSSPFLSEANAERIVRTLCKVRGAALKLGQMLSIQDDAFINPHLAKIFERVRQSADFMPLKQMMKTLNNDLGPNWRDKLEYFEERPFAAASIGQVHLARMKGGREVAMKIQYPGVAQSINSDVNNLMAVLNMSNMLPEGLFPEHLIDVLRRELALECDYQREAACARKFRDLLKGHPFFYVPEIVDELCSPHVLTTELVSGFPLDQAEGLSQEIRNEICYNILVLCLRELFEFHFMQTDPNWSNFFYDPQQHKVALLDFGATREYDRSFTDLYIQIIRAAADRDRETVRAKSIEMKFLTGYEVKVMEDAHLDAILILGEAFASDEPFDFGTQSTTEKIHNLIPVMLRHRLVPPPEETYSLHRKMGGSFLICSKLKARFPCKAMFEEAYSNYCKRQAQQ
Chain of UniProt P51955 (whole entry, looked up): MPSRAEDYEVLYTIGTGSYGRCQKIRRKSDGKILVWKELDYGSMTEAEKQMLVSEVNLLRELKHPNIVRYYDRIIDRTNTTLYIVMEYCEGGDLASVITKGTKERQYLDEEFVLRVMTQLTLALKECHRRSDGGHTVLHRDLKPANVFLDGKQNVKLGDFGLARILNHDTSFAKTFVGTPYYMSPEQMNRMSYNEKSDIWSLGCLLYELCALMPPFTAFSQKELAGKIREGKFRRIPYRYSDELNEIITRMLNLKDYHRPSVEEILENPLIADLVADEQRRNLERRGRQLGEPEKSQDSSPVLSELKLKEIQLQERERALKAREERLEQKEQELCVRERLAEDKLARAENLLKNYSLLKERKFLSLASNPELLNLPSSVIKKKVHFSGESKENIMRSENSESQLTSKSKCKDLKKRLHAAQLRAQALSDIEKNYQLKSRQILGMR

Study 1 — tested at: 1 µM
Compound: CC[C@@]1(c2cccc(-c3c(F)cncc3OC)c2)C2=C(Nc3n[nH]cc31)[C@H](F)C(C)(C)CC2=O (single isomer, unassigned)
target	assay	scale	remaining binding
EPHB3 (Homo sapiens, UniProt P54753)	kinase binding, KINOMEscan	reference: DMSO control	100%
Tyrosine-protein kinase JAK1, JH2 (JAK1, Homo sapiens, UniProt P23458)	binding, competition with immobilised ligand		74%
COQ8A (Homo sapiens, UniProt Q8NI60)	binding, competition with immobilised ligand		100%
RET (Homo sapiens, UniProt P07949, V804M)	kinase binding, KINOMEscan	reference: DMSO control	100%
NEK2 (Homo sapiens, UniProt P51955)	binding, competition with immobilised ligand		93%
Ribosomal protein S6 kinase alpha-6, C-terminal kinase domain (RPS6KA6, Homo sapiens, UniProt Q9UK32)	binding, competition with immobilised ligand		98%
MELK (Homo sapiens, UniProt Q14680)	binding, competition with immobilised ligand		100%
DCLK2 (Homo sapiens, UniProt Q8N568)	kinase binding, KINOMEscan	reference: DMSO control	100%
WNK1 (Homo sapiens, UniProt Q9H4A3)	binding, competition with immobilised ligand		81%
DCLK1 (Homo sapiens, UniProt O15075)	kinase binding, KINOMEscan	reference: DMSO control	59%
LIM domain kinase 1 (LIMK1, Homo sapiens, UniProt P53667)	binding, competition with immobilised ligand		92%
Tyrosine-protein kinase ABL1, phosphorylated (ABL1, Homo sapiens, UniProt P00519, H396P)	kinase binding, KINOMEscan	reference: DMSO control	100%

Study 2 — host: female CD-1 mouse; sample: plasma; route: oral; dose: 10 mg/kg
Compound	AUC(0-t) [ng·h/mL]
Cc1ccc(O)c(C)c1-c1cnc2[nH]c(-c3cnc(N4CCC(CCN5CCN(c6ccc(NC7CCC(=O)NC7=O)cc6F)CC5)CC4)nc3)cc2c1C#N (stereo not shown)	1790
Cc1ccc(O)c(C)c1-c1cnc2[nH]c(-c3cnc(N4CCC(CN5CCC(c6ccc(NC7CCC(=O)NC7=O)cc6F)CC5)CC4)nc3)cc2c1C#N (stereo not shown)	1260
Cc1ccc(O)c(C)c1-c1cnc2[nH]c(-c3cnc(N4CCC(CN5CCN(c6ccc(NC7CCC(=O)NC7=O)cc6F)CC5)CC4)nc3)cc2c1C#N (stereo not shown)	1840
Cc1ccc(O)c(C)c1-c1cnc2[nH]c(-c3cnc(N4CC5(CC(CN6CCN(c7ccc(NC8CCC(=O)NC8=O)cc7F)CC6)C5)C4)nc3)cc2c1C#N (stereo not shown)	532

Study 3 — cell line: U-87 MG; tested at: concentration not given; reference: DMSO
SMILES: CCN1/C(=C/C=C2\CCCC(/C=C/C3=[N+](CC)c4ccccc4C3(C)C)=C2NCCCCCCCCN2CCC(Nc3nc4ccccc4n3Cc3ccc(F)cc3)CC2)C(C)(C)c2ccccc21
assay	log2 fold change
measured: DNAH17 mRNA	4.98
measured: ISY1-RAB43 mRNA	0.948
measured: TUBA1C mRNA	-1.19
measured: KIF23 mRNA	-2.13
measured: PRAG1 mRNA	-1.4
measured: ZSWIM4 mRNA	1.22
measured: ARHGAP11A mRNA	-2.08
measured: NCOA7 mRNA	1.24
measured: SDCBP mRNA	0.876
measured: NEK2 mRNA	-1.53
measured: WFDC3 mRNA	-1.53

Study 4 — observed: thermal unfolding; method: differential scanning fluorimetry; tested at: 5.5 µM; direction: higher = more unfolded
SMILES: C[C@@H]1CN(c2ccc(-c3cc(C(=O)NCCOCCOCCOCCOCCNC(=O)Cn4cc(-c5[nH]cc(C(=O)N[C@@H](CC(N)=O)c6ccc(F)c(Cl)c6)c5-c5ccc(Cl)cc5F)cn4)ccc3F)cc2NC(=O)c2c[nH]c(=O)cc2C(F)(F)F)C[C@H](C)N1C
DCAF1: DDB1- and CUL4-associated factor 1 (DCAF1, Homo sapiens, UniProt Q9Y4B6)
Chain of UniProt Q9Y4B6 (whole entry, looked up): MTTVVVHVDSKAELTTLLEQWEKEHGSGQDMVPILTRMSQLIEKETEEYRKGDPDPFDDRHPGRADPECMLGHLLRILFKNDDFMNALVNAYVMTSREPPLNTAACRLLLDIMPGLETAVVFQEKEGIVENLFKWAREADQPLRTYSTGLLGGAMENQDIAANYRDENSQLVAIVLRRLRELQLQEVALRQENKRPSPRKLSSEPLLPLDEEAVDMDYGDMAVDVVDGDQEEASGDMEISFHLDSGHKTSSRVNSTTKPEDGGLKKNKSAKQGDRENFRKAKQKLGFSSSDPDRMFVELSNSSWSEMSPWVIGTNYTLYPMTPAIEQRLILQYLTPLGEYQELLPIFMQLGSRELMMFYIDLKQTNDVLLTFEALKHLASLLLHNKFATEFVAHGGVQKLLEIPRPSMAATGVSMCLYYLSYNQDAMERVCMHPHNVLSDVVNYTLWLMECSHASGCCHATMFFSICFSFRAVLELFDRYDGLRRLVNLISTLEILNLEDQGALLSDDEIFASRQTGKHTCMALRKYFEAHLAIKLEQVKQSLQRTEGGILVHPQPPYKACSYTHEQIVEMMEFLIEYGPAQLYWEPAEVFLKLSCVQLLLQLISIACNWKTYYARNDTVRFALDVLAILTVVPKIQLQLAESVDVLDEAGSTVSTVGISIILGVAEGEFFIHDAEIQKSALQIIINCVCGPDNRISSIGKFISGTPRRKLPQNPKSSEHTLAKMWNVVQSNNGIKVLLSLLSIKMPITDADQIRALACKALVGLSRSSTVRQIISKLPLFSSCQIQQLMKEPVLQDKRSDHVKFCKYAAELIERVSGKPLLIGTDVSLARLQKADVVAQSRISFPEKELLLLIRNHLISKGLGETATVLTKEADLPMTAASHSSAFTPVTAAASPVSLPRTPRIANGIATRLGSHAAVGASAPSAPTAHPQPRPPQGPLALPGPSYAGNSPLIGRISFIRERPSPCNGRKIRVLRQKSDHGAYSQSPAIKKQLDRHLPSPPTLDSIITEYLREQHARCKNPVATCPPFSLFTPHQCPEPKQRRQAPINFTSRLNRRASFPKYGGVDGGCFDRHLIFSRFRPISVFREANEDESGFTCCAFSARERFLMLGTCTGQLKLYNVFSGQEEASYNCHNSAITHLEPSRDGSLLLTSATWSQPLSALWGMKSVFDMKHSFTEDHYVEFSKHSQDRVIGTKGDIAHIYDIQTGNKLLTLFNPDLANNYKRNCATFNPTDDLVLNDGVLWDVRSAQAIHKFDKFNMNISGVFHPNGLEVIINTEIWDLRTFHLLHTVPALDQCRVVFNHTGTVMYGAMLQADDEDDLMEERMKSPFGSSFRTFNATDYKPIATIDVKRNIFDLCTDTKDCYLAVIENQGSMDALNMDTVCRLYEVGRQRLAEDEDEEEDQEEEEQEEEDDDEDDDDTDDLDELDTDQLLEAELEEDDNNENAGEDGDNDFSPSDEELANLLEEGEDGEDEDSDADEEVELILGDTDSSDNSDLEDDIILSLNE
WDR5: WD repeat-containing protein 5 (WDR5, Homo sapiens, UniProt P61964)
target	setting	SYPRO Orange fluorescence [a.u.]
DCAF1	67.21 °C	56700
WDR5	55.61 °C	13200
DCAF1	78.81 °C	45200
WDR5	92.01 °C	41400
DCAF1	71.41 °C	53000
WDR5	91.61 °C	41800
WDR5	51.8 °C	14400
